{"data": "Experimental data pooled from the literature", "cell line": "A2780", "note": "Compare with care: the assays were run in different laboratories. Numbers after ± are the reported error."}
{"Compound": "CC(C)c1cccc(C(C)C)c1[N+]#[C][Pd-2]([Cl])([Cl])[C]#[N+]c1c(C(C)C)cccc1C(C)C", "test": "cell growth or viability", "IC50 [µM]": "> 100"}
{"Compound": "COc1ccc(CNC[C@@](O)(COCc2ccc(F)cc2)[C@@H]2CC[C@@H](C)C[C@H]2OCc2ccc(F)cc2)cc1", "test": "cell growth or viability, MTT", "conditions": "72 h", "IC50 [µM]": 1.4}
{"Compound": "Cc1cc(C)c(N[C](NCc2ccc(N[C](Nc3c(C(C)C)cccc3C(C)C)=[Pd-]([Cl])([Cl])[C]#[N+]c3c(C(C)C)cccc3C(C)C)cc2)=[Au][Cl])c(C)c1", "test": "cell growth or viability", "IC50 [µM]": "> 100"}
{"Compound": "CC(=O)OC[C@]1(C)CCC[C@]2(COC(C)=O)[C@@H]1CC[C@@]13C[C@@H](C[C@H](O)[C@H]12)[C@@H](C)C3=O", "test": "cell growth or viability, MTT", "IC50 [µM]": "> 20"}
{"Compound": "CC(C)=CCC1=C([O-])C(=O)c2ccccc2C1=O.CC(C)=CCC1=C([O-])C(=O)c2ccccc2C1=O.[Cu+2].c1ccc(-c2ccnc3c2ccc2c(-c4ccccc4)ccnc23)cc1", "test": "cell viability, MTT", "conditions": "48 h", "IC50 [µM]": "0.32 ± 0.05"}
{"Compound": "COc1ccc(CNC[C@@](O)(COCc2ccc(OC)cc2)[C@@H]2CC[C@@H](C)C[C@H]2OCc2ccc(OC)cc2)cc1", "test": "cell growth or viability, MTT", "conditions": "72 h", "IC50 [µM]": 1.5}
{"Compound": "CC1=CC(c2cccc(C(F)(F)F)c2)=[O+][Ru-]([Cl])[O]1.Cc1c(C)c(C)c(C)c(C)c1C", "test": "cell growth or viability, MTT", "IC50 [µM]": 5.1}
{"Compound": "Cc1cc(C)c([N+]#[C][Pt-2]([Cl])([Cl])[C]#[N+]c2c(C)cc(C)cc2C)c(C)c1", "test": "cell growth or viability", "IC50 [µM]": "> 100"}
{"Compound": "CC(C)c1cccc(C(C)C)c1-n1ccn(-c2c(C(C)C)cccc2C(C)C)c1=[Se].[Cl][Ag]", "test": "cell growth or viability, MTT", "conditions": "72 h", "IC50 [µM]": 0.6}
{"Compound": "COC(=O)CCC(=O)[O][Pt-2]1([OH])([Cl])([Cl])[NH2+]CC[N+]1(C)C", "test": "cell viability, EZ4U", "conditions": "96 h", "IC50 [µM]": "19.7 ± 0.4"}
{"Compound": "[Cl][Pd-2]1([Cl])[N+](=P(c2ccccc2)(c2ccccc2)c2ccccc2)Cc2cccc[n+]21", "test": "cell growth or viability, MTT", "conditions": "74 h", "IC50 [µM]": 7.1}
{"Compound": "CC12CCC3c4ccc(OCCCOc5no[n+]([O-])c5S(=O)(=O)c5ccccc5)c(Br)c4CCC3C1CCC2O (stereo not drawn)", "test": "cell growth or viability, MTT", "conditions": "48 h", "IC50 [µM]": 0.0286}
{"Compound": "COc1ccc(CNC[C@@](O)(COCc2ccccc2)[C@@H]2CC[C@@H](C)C[C@H]2OCc2ccccc2)cc1", "test": "cell growth or viability, MTT", "conditions": "72 h", "IC50 [µM]": 3.8}
{"Compound": "Cc1cc(C)c([N+]#[C][Pt-]([Cl])([Cl])=[C](Nc2cccc(CN[C](Nc3c(C(C)C)cccc3C(C)C)=[Au][Cl])c2)Nc2c(C)cc(C)cc2C)c(C)c1", "test": "cell growth or viability", "IC50 [µM]": "> 100"}
{"Compound": "C1=CCC=C1.[Cl][Au-]1([Cl])[N+](=P(c2ccccc2)(c2ccccc2)[c-]2cccc2)Cc2cccc[n+]21.[Fe+2].[O-][Cl+3]([O-])([O-])[O-]", "test": "cell growth or viability, MTT", "conditions": "74 h", "IC50 [µM]": 30.1}
{"Compound": "O=C(N[c-]1cccc1)OCc1ccc(C(=O)O)cc1.[Fe+2].c1cc[cH-]c1", "test": "cell growth or viability, MTT", "conditions": "48 h", "IC50 [µM]": "> 50"}
{"Compound": "C=C1C(=O)[C@@]23CC[C@@H]4[C@](C)(COC(C)=O)CCC[C@@]4(COC(C)=O)[C@@H]2[C@@H](O)C[C@@H]1C3", "test": "cell growth or viability, MTT", "IC50 [µM]": 18.8}
{"Compound": "CC(C)c1cccc(C(C)C)c1[N+]#[C][Pd-]([Cl])([Cl])=[C](Nc1cccc(CN[C](NC(C)(C)C)=[Au][Cl])c1)Nc1c(C(C)C)cccc1C(C)C", "test": "cell growth or viability", "IC50 [µM]": "> 100"}
{"Compound": "CC(C)c1cccc(C(C)C)c1-n1c(Cl)c(Cl)n(-c2c(C(C)C)cccc2C(C)C)c1=[Se].[Cl][Au]", "test": "cell growth or viability", "conditions": "72 h, 3D culture", "IC50 [µM]": 9.2}
{"Compound": "C[N+]1(C)CC[NH2+][Pt-2]1([OH])([Cl])([Cl])[O]C(=O)CCC(=O)O", "test": "cell viability, EZ4U", "conditions": "96 h", "IC50 [µM]": "31 ± 6"}
{"Compound": "COc1cccc(CNC[C@](O)(COCc2ccccc2)[C@@H]2CC[C@@H](C)C[C@H]2OCc2ccccc2)c1", "test": "cell growth or viability, MTT", "conditions": "72 h", "IC50 [µM]": 0.85}
{"Compound": "CN(C)C(=S)N(C)N=Cc1ccccc1SSc1ccccc1C=NN(C)C(=S)N(C)C", "test": "cell growth or viability, MTT", "conditions": "72 h", "IC50 [µM]": 0.14}
{"Compound": "C[C@@H]1CC[C@@H]([C@](O)(CNCc2ccccc2F)COCc2ccccc2)[C@H](OCc2ccccc2)C1", "test": "cell growth or viability, MTT", "conditions": "72 h", "IC50 [µM]": 3}
{"Compound": "CCCCCCCCCCCCCCCCNC(=O)[O][Pt]([Cl])([Cl])[O]C(=O)CCC(=O)O.N.N", "test": "cell growth or viability, MTT", "conditions": "72 h", "IC50 [µM]": 0.16}
{"Compound": "CC(C)=CCC1=C([O-])C(=O)c2ccccc2C1=O.CC(C)=CCC1=C([O-])C(=O)c2ccccc2C1=O.Cc1cc2cccnc2c2ncccc12.[Cu+2]", "test": "cell viability, MTT", "conditions": "72 h", "IC50 [µM]": "0.31 ± 0.03"}
{"Compound": "COc1ccc(CC2COC(=O)C2Cc2ccc3c(c2)OCO3)cc1OC (mixture of isomers)", "test": "cytotoxicity, MTT", "conditions": "72 h", "IC50 [µM]": "8.75 ± 0.47"}
{"Compound": "CC(C)c1cccc(C(C)C)c1N1CCN(c2c(C(C)C)cccc2C(C)C)C1=[Se].[Cl][Au]", "test": "cell growth or viability", "conditions": "72 h, 3D culture", "IC50 [µM]": 5.7}
{"Compound": "CC(C)c1cccc(C(C)C)c1[N+]#[C][Pd-]([Cl])([Cl])=[C](Nc1ccc(CN[C](NC(C)(C)C)=[Au][Cl])cc1)Nc1c(C(C)C)cccc1C(C)C", "test": "cell growth or viability", "IC50 [µM]": "> 100"}
{"Compound": "CC(=O)OC[C@]1(C)CCC[C@]2(C)[C@@H]1CC[C@@]13C[C@@H](C[C@H](O)[C@H]12)[C@H](C)C3=O", "test": "cell growth or viability, MTT", "IC50 [µM]": "> 20"}
{"Compound": "c1ccc(-n2nc(-c3ccccn3)n[n+]2-c2ccccc2)cc1", "test": "cell growth or viability, resazurin", "conditions": "72 h", "IC50 [µM]": 74}
{"Compound": "C1=CCC=C1.[Cl][Pd-2]1([Cl])[N+](=P(c2ccccc2)(c2ccccc2)C2C=CC=C2)Cc2cccc[n+]21.[Fe+2]", "test": "cell growth or viability, MTT", "conditions": "74 h", "IC50 [µM]": 17.4}
{"Compound": "CCCCCCCCC=CCCCCCCCC(=O)OCC1OC(n2ccc(N)nc2=O)C(F)(F)C1O (stereo not drawn)", "test": "cell growth or viability, SRB", "conditions": "72 h", "IC50 [µM]": 0.0025}
{"Compound": "Cc1cc(C)c([N+]#[C][Pt-]([Cl])([Cl])=[C](Nc2cccc(CN[C](NC(C)(C)C)=[Au][Cl])c2)Nc2c(C)cc(C)cc2C)c(C)c1", "test": "cell growth or viability", "IC50 [µM]": "> 100"}
{"Compound": "Cc1c(C)n(-c2c(C(C)C)cccc2C(C)C)c(=[Se])n1-c1c(C(C)C)cccc1C(C)C.[Cl][Au]", "test": "cell growth or viability", "conditions": "72 h, 3D culture", "IC50 [µM]": 9}
{"Compound": "C[C@@H]1CC[C@@H]([C@@](O)(COCc2ccccc2)Cn2cnc3ccccc32)[C@H](OCc2ccccc2)C1", "test": "cell growth or viability, MTT", "conditions": "72 h", "IC50 [µM]": 5.3}
{"Compound": "CC(C)(C)N=[C](NCc1cccc(N)c1)[AuH][Cl]", "test": "cell growth or viability", "IC50 [µM]": "> 100"}
{"Compound": "Oc1ccccc1-c1nn(-c2ccccn2)[n+](-c2ccccc2)n1", "test": "cell growth or viability, resazurin", "conditions": "72 h", "IC50 [µM]": 12}
{"Compound": "[Cl][Au].[Se]=c1n(C23CC4CC(CC(C4)C2)C3)ccn1C12CC3CC(CC(C3)C1)C2", "test": "cell growth or viability", "conditions": "72 h, 3D culture", "IC50 [µM]": 4.4}
{"Compound": "C#CCN(C(=O)OCc1ccc(B2OC(C)(C)C(C)(C)O2)cc1)[c-]1cccc1.[Fe+2].c1cc[cH-]c1", "test": "cell growth or viability, MTT", "conditions": "48 h", "IC50 [µM]": 14.2}
{"note": "Excerpt of the above:"}
{"Compound": "C=C1C(=O)[C@@]23CC[C@@H]4[C@](C)(COC(C)=O)CCC[C@@]4(COC(C)=O)[C@@H]2[C@@H](O)C[C@@H]1C3", "test": "cell growth or viability, MTT", "IC50 [µM]": 18.8}
{"Compound": "CC(C)c1cccc(C(C)C)c1[N+]#[C][Pd-]([Cl])([Cl])=[C](Nc1cccc(CN[C](NC(C)(C)C)=[Au][Cl])c1)Nc1c(C(C)C)cccc1C(C)C", "test": "cell growth or viability", "IC50 [µM]": "> 100"}
{"Compound": "CC(C)c1cccc(C(C)C)c1-n1c(Cl)c(Cl)n(-c2c(C(C)C)cccc2C(C)C)c1=[Se].[Cl][Au]", "test": "cell growth or viability", "conditions": "72 h, 3D culture", "IC50 [µM]": 9.2}
